Measurements of several laboratories.
Protocols differ between the studies behind these lines. ± gives the spread as reported.
SYK tandem SH2 domains: Tyrosine-protein kinase SYK, tandem SH2 domains (SYK, Homo sapiens, UniProt P43405)
SLC22A12: Solute carrier family 22 member 12 (SLC22A12, Homo sapiens, UniProt Q96S37)
PDE1C: Dual specificity calcium/calmodulin-dependent 3',5'-cyclic nucleotide phosphodiesterase 1C (PDE1C, Homo sapiens, UniProt Q14123)
crk3 with CYC6: crk3, with CYC6 (Leishmania mexicana, UniProt O15851)
MAL12: Alpha-glucosidase MAL12 (MAL12, Saccharomyces cerevisiae S288c, UniProt P53341)
Proteasome subunit beta type-10: Proteasome subunit beta type-10 (Homo sapiens, UniProt P40306)
SNCA pre-formed fibrils: Alpha-synuclein, pre-formed fibrils (SNCA, Homo sapiens, UniProt P37840)
Urease: Urease (Canavalia ensiformis, UniProt P07374)

For `Cc1cc(NC2CCN(C)CC2)ccc1-c1cc2c(N3CCC[C@H](C(=O)NCc4ccc(OC(F)(F)F)cc4)C3)ncnc2[nH]1`, the IC50 was 6.43 µM (Misshapen-like kinase 1 (MINK1, Homo sapiens, UniProt Q8N4C8); enzyme activity, inhibitor, mobility shift).
`CC(C)c1nc(S)n(C)n1` has an IC50 of 5.41 ± 0.06 µM (SYK tandem SH2 domains; binding, inhibitor, TR-FRET; added: FITC-FCER1G phospho-ITAM peptide).
For `COc1ccc(OC)c(CN2CCN(Cc3cc(OC)c(O)c(OC)c3)CC2)c1`, the IC50 was 4 ± 2 µM (Alpha-synuclein (SNCA, Homo sapiens, UniProt P37840); fibril growth, ELISA and FlAsH; 20 h, added: 6 µM monomer).
For `O=C(NS(=O)(=O)c1cccs1)c1cc2ccccc2n1Cc1ccc(Br)c2ccccc12`, the IC50 was 3.81 µM (SLC22A12; transporter uptake, inhibitor, radiometric).
With `Cc1cc(C(=O)Nc2nc3cccc(C)c3n2[C@H]2CCCCN(C(=O)/C=C/CN(C)C)C2)ccn1` the IC50 was 0.825 µM (Dual specificity protein kinase CLK1 (CLK1, Homo sapiens, UniProt P49759); ADP-Glo; 10 min pre-incubation, added: ATP 10 µM).
`CC(C)(C)n1ncc2c(=O)n(Cc3cccc(F)c3)c(NCc3ccc(Cl)nc3)nc21` has an IC50 of 0.0019 µM (PDE1C; enzyme activity, inhibitor, radiometric).
`COc1cc(O)c2c(c1)CCC21CCC(OC(C)=O)CC1` (stereo not shown) has an IC50 of 1410 ± 80 µM (rat intestinal maltase; inhibitor; rat intestinal acetone powder; 10 min, 37 °C, added: maltose 10 mM).
`O=C(Nc1cc(Cc2ccccc2)[nH]n1)C1CCC1` has an IC50 of 11 µM (crk3 with CYC6; enzyme activity, inhibitor, radiometric; added: Leishmania major CYC6 cyclin, 1 µM ATP).
For `C[C@@H](Nc1nc2c(cnn2C(C)(C)C)c(=O)n1Cc1cccc(F)c1)c1ccccn1`, the IC50 was 0.0004 µM (PDE1C; enzyme activity, inhibitor, radiometric).
`CCC1(CC)CC(=O)N(C2c3cc(C(=O)NC4c5ccccc5CC4O)ccc3OC2(C)COC)C(=N)N1` (stereo not shown) gave an IC50 of greater than 30 µM (Potassium voltage-gated channel subfamily KQT member 1, with KCNE1 (KCNQ1, Homo sapiens, UniProt P51787); IKs current, inhibitor, automated patch clamp; HEK293).
`CCOc1cc(CN2CCC3(CC2)CN(c2ccc(C(=O)O)cc2)C(=O)N3)c(C2CC2)cc1C` gave an IC50 of 0.0115 µM (Somatostatin receptor type 5 (SSTR5, Homo sapiens, UniProt P35346, N100A); cAMP level, antagonist, GloSensor; AD293; N100A mutant, bandwidth 2.64, added: CST17 EC80 and forskolin).
`CCN(CC)CC(=O)Nc1cccc(-n2cc(-c3ccc4ccc(-c5cn(-c6cccc(NC(=O)CN(CC)CC)c6)nn5)cc4c3)nn2)c1` gave an IC50 of greater than 10 µM (Tyrosine-protein kinase SYK, non-phosphorylated (SYK, Homo sapiens, UniProt P43405); enzyme activity, inhibitor).
With `CSc1cc(C)[nH]c(=O)c1CNC(=O)c1cc(Cl)c2c(c1C)OC(C)(C1CCC(N(C)C)CC1)O2` (stereo not shown) the IC50 was 3.3e-05 µM (Histone-lysine N-methyltransferase EZH2, PRC2 pentameric complex (EZH2, Homo sapiens, UniProt Q15910); enzyme activity, inhibitor; added: H3K27me3 activating peptide).
With `CCc1ccc(NS(=O)(=O)c2c(C)[nH]c(C)c2C(=O)N2CCCC2)cc1` the IC50 was greater than 100 µM (D(2) dopamine receptor (DRD2, Homo sapiens, UniProt P14416)).
`O=C(O)P(=O)(O)O` has an IC50 of 4.4 µM (DNA polymerase catalytic subunit (Human cytomegalovirus, UniProt P08546); enzyme activity, inhibitor).
`COc1cc2c(cc1NS(=O)(=O)c1ccc(Br)cc1C)n(C)c(=O)n2C` has an IC50 of 16.5 µM (Transcription initiation factor TFIID subunit 1-like, BD2 (TAF1L, Homo sapiens, UniProt Q8IZX4)).
The IC50 of `CC(C)(COC(=O)/C=C/c1ccc([N+](=O)[O-])cc1)CC1=C(O)C(=O)c2ccccc2C1=O` is reported as 31.9 µM (MAL12; enzyme activity, inhibitor).
The IC50 of `O=C(Nc1cc(-c2c(F)cccc2F)[nH]n1)c1ccccc1` is reported as 3 µM (crk3 with CYC6; enzyme activity, inhibitor, radiometric; added: Leishmania major CYC6 cyclin, 1 µM ATP).
`Cc1nn(-c2cccc(N)c2)c(=O)c2cnc(Nc3ccc(N4CCNCC4)cc3)nc12` has an IC50 of greater than 10 µM (Protein-tyrosine kinase 2-beta (PTK2B, Homo sapiens, UniProt Q14289); enzyme activity, inhibitor).
With `CC(C)n1c(N)nc2c1c(=O)[nH]c(=O)n2C` the IC50 was greater than 100 µM (SYK tandem SH2 domains; binding, inhibitor, TR-FRET; added: FITC-FCER1G phospho-ITAM peptide).
`CCn1nc(Cl)c2c1-c1cnc(N)c(c1)O[C@H](C)c1cc(F)ccc1-c1nn(C)cc1C2` gave an IC50 of 0.475 µM (Ephrin type-A receptor 7 (EPHA7, Homo sapiens, UniProt Q15375); enzyme activity, inhibitor, radiometric).
`C[S@@](=N)(=O)c1ccc(C(=O)Nc2cc(-c3ccc(F)cc3)ccc2N)cc1` gave an IC50 of greater than 100 µM (Histone deacetylase (HDAC1 and HDAC2), in NuRD complex (HDAC1/HDAC2, Homo sapiens, UniProt Q13547+Q92769); enzyme activity, inhibitor).
`O=C(Nc1cc(Cc2ccccc2)[nH]n1)c1ccccc1` has an IC50 of 9.2 µM (crk3 with CYC6; enzyme activity, inhibitor, radiometric; added: Leishmania major CYC6 cyclin, 1 µM ATP).
The IC50 of `COc1ccc(NC(=O)c2cnn(-c3ccc([N+](=O)[O-])cc3)c2C(F)(F)F)cc1OC` is reported as 5.59 µM (Prostaglandin G/H synthase 1 (PTGS1, Ovis aries, UniProt P05979); enzyme activity, inhibitor).
For `CCOC(=O)c1ccccc1-c1c2ccc(=O)cc-2oc2cc(OCCCNC(=O)C(OC(=O)c3ccc(O)c(OC)c3)C3CC3)ccc12` (stereo not shown), the IC50 was 43.3 µM (Polyunsaturated fatty acid lipoxygenase ALOX15 (ALOX15, Homo sapiens, UniProt P16050); enzyme activity, inhibitor, absorbance).
With `CC(C)C[C@H](NC(=O)[C@H](Cc1ccc(CN)cc1)NC(=O)[C@H](Cc1ccccc1)N=[N+]=[N-])C(=O)N[C@@H](CCC1CCCCC1)C(=O)[C@@]1(C)CO1` the IC50 was 0.0134 µM (Proteasome subunit beta type-10; inhibitor, biochemical).
For `CCN(CC)Cc1ccc2cc(COC(=O)Nc3cccc(C(=O)NO)c3)ccc2c1`, the IC50 was 5.78 µM (SNCA pre-formed fibrils; binding to RAGE, inhibitor, ELISA; added: FLAG-α-syn PFFs 100 nM).
For `O=[N+]([O-])c1ccccc1-c1cc(CN2c3ccccc3C=Cc3ccccc32)on1`, the IC50 was greater than 27 µM (Urease; enzyme activity, inhibitor).
For `C#Cc1ccc2nc([C@H](CCNC(=N)c3ccc([N+](=O)[O-])o3)NC(=O)c3noc(-c4cc(F)ccc4F)n3)[nH]c2c1`, the IC50 was 1.5 µM (Stimulator of interferon genes protein (STING1, Homo sapiens, UniProt Q86WV6, H232R); reporter gene).
With `COc1cc(OC)c(/N=N/c2ccc(C(=O)NO)cc2)c(OC)c1` the IC50 was 19 µM (Urease; enzyme activity, inhibitor, absorbance; pH 7.3).
`CN1CCC(n2cc(-c3ccc4cc(NC(=O)Nc5cccc(C(=O)NO)c5)ccc4c3)cn2)CC1` gave an IC50 of 1.45 µM (SNCA pre-formed fibrils; binding to mouse LAG3 D1, inhibitor, ELISA; added: FLAG-α-syn PFFs 100 nM).
The IC50 of `C=CC(=O)N1C[C@H](C)N(c2nc(OC[C@@]34CCCN3C[C@H](F)C4)nc3c(F)c(-c4ccc(F)c5sc(N)c(C#N)c45)c(C(F)(F)F)cc23)C[C@H]1C` is reported as 0.018 ± 0.004 µM (GTPase KRas, GppNHp; with RAF1 RBD (KRAS, Homo sapiens, UniProt P01116, G12C)).
For `C[C@@H](C(=O)O)n1nc(Cn2cc3cc(OCCF)c(Cl)cc3n2)c2ccccc2c1=O`, the IC50 was greater than 1 µM (Sphingosine 1-phosphate receptor 1 (S1PR1, Homo sapiens, UniProt P21453); ligand displacement, radioligand; cell membranes).
With `O=C(Nc1ccc(C(=O)NO)cc1)OCc1ccc2ccccc2c1` the IC50 was 4.38 µM (SNCA pre-formed fibrils; binding to RAGE, inhibitor, ELISA; added: FLAG-α-syn PFFs 100 nM).
With `CCOc1ccc(-c2cc(CN3c4ccccc4C=Cc4ccccc43)on2)cc1` the IC50 was 3.67 µM (Urease; enzyme activity, inhibitor).
`CC(C)(Sc1nc2ncccc2n1Cc1ccc(Br)c2ccccc12)C(=O)O` gave an IC50 of 0.332 µM (SLC22A12; transporter uptake, inhibitor, radiometric).
For `N#Cc1ccccc1-c1cc(CN2c3ccccc3C=Cc3ccccc32)on1`, the IC50 was 15.6 µM (Urease; enzyme activity, inhibitor).
The IC50 of `Cc1cncn1Cc1ccc(Nc2cccc(F)c2)cc1` is reported as 0.39 µM (Glutaminyl-peptide cyclotransferase (QPCT, Homo sapiens, UniProt Q16769)).
`COc1cc(OC)c(/N=N/c2c(Cl)cc(C(=O)NO)cc2Cl)c(OC)c1` has an IC50 of greater than 512 µM (Urease; enzyme activity, inhibitor, absorbance; pH 7.3).
With `CCN(CC)Cc1ccc2cc(NC(=O)Nc3ccc(C(=O)NO)cc3)ccc2c1` the IC50 was 8.05 µM (SNCA pre-formed fibrils; binding to mouse LAG3 D1, inhibitor, ELISA; added: FLAG-α-syn PFFs 100 nM).
With `CC(C)(COC(=O)/C=C/c1ccc(Cl)cc1Cl)CC1=C(O)C(=O)c2ccccc2C1=O` the IC50 was 10.6 µM (MAL12; enzyme activity, inhibitor).
`CC(C)C[C@H](NC(=O)[C@H](Cc1ccc(CN)cc1)NC(=O)[C@H](Cc1ccccc1)N=[N+]=[N-])C(=O)N[C@@H](CC1CCC(C2CCCCC2)CC1)C(=O)[C@@]1(C)CO1` (stereo partly shown) has an IC50 of 3.62 µM (Proteasome subunit beta type-10; inhibitor, biochemical).
With `CC(C)[C@H](NC(=O)[C@H](Cc1ccc(O)cc1)NC(=O)[C@H](CCC(N)=O)NC(=O)[C@@H](N)Cc1ccc(O)cc1)C(=O)N[C@@H](CO)C(=O)NCC(=O)NCC(=O)O` the IC50 was 131 µM (SUMO-activating enzyme (Homo sapiens, UniProt Q9UBE0+Q9UBT2); SUMO thioester formation, Western blot; 10 min, added: 1 µM SUMO).
The IC50 of `COc1ccc(CNc2nc3c(cnn3C(C)(C)C)c(=O)n2Cc2cccc(F)c2)cn1` is reported as 0.0042 µM (PDE1C; enzyme activity, inhibitor, radiometric).
With `COc1ccc(C(=O)c2c(C(=O)NCCCN(C)C)oc3ccc(Cl)cc3c2=O)cc1OC` the IC50 was 0.00832 µM (Growth hormone secretagogue receptor type 1 (GHSR, Homo sapiens, UniProt Q92847); receptor internalization, ELISA; HEK293T; 45 min, 37 °C).
The IC50 of `COc1cc(OC)c2c(=O)cc(-c3cc(C)c(OCCCN4CCN(C)CC4)c(C)c3)oc2c1` is reported as 1.16 µM (Bromodomain-containing protein 2, BD2 (BRD2, Homo sapiens, UniProt P25440); cell-free assay, TR-FRET).
With `Cc1nc2ccc(Br)cc2c(=O)n1N` the IC50 was 159 ± 3.54 µM (Xanthine dehydrogenase/oxidase (XDH, Bos taurus, UniProt P80457); enzyme activity, inhibitor).
For `O=[N+]([O-])c1ccc(-c2cc(CN3c4ccccc4C=Cc4ccccc43)on2)cc1`, the IC50 was greater than 27 µM (Urease; enzyme activity, inhibitor).
With `CC(C)[C@H](NC(=O)[C@H](Cc1ccccc1)NC(=O)c1ccc(C(C)(C)C)cc1)C(=O)N[C@@H](Cc1c[nH]cn1)C(=O)N[C@@H](CCCCN(C)C1CC2CCC1C2)C(=O)N[C@@H](CO)C(N)=O` (stereo partly shown) the IC50 was greater than 30 µM (Chromobox protein homolog 7 (Homo sapiens, UniProt O95931); ligand displacement, TR-FRET).

Some of these lines once more:
`CC(C)c1nc(S)n(C)n1` has an IC50 of 5.41 ± 0.06 µM (SYK tandem SH2 domains; binding, inhibitor, TR-FRET; added: FITC-FCER1G phospho-ITAM peptide).
With `CCc1ccc(NS(=O)(=O)c2c(C)[nH]c(C)c2C(=O)N2CCCC2)cc1` the IC50 was greater than 100 µM (D(2) dopamine receptor (DRD2, Homo sapiens, UniProt P14416)).
`COc1cc(OC)c(/N=N/c2c(Cl)cc(C(=O)NO)cc2Cl)c(OC)c1` has an IC50 of greater than 512 µM (Urease; enzyme activity, inhibitor, absorbance; pH 7.3).
With `CSc1cc(C)[nH]c(=O)c1CNC(=O)c1cc(Cl)c2c(c1C)OC(C)(C1CCC(N(C)C)CC1)O2` (stereo not shown) the IC50 was 3.3e-05 µM (Histone-lysine N-methyltransferase EZH2, PRC2 pentameric complex (EZH2, Homo sapiens, UniProt Q15910); enzyme activity, inhibitor; added: H3K27me3 activating peptide).
The IC50 of `COc1ccc(NC(=O)c2cnn(-c3ccc([N+](=O)[O-])cc3)c2C(F)(F)F)cc1OC` is reported as 5.59 µM (Prostaglandin G/H synthase 1 (PTGS1, Ovis aries, UniProt P05979); enzyme activity, inhibitor).
